Assay results from different studies.
Lines come from different studies, so protocols differ. ± marks the error that the study gave.

SMILES	test	test system	conditions	how to read	endpoint	value
COc1c2c(cc3oc(COC4OC(CO)C(O)C(O)C4O)cc(=O)c13)OC(C(C)(C)O)C2 (centres unmarked)	–	simulated intestinal fluid with pancreatin	2 h, pH 6.8, 37 °C	–	transformation rate	99.6%
CCCCCC(O)C=CC1OC2OC(C1CC=CCCCC(=O)O)C2(F)F (centres unmarked)	–	50 mM HCl buffer	pH 1.80, 23 °C	–	hydrolysis rate constant	5.46e-05 s⁻¹
Cc1ccc(OCC(=O)O)cc1	–	beagle dog, male, plasma	oral gavage, 10 mg/kg of parent drug	–	t1/2	4.77 h
O=C([O-])CN1CCN(CC(=O)[O-])CCN(CC(=O)NCC2CCC(C(=O)NC(Cc3ccc4ccccc4c3)C(=O)NCCCCC(NC(=O)NC(CCC(=O)O)C(=O)O)C(=O)O)CC2)CCN(CC(=O)[O-])CC1.[44Sc+3] (centres unmarked)	PET/CT dosimetry, OLINDA/EXM	human, liver	–	–	residence time	0.779 h
CN(C)c1cc(CN2CCCCC2)c(O)c2c1C[C@H]1C[C@H]3[C@H](N(C)C)C(O)=C(C(N)=O)C(=O)[C@@]3(O)C(O)=C1C2=O	–	cynomolgus monkey, plasma	oral, 5 mg/kg	–	AUC	1500 ng·h/mL
CNc1cc(OC)c(Nc2nccc(-c3cn(C4CC4)c4ccccc34)n2)cc1NC(=O)CCSCC(N)C(=O)O (centres unmarked)	radio-HPLC, co-eluting peaks pooled	human, urine	dose not given, 0 to 96 h, sample holds 4.16% dose	relative to: sample radioactivity	share of radioactivity	1.7%
CC(C)c1cnc(-c2cc(Cl)ccc2F)cc1Nc1ccncc1C(=O)NC(CO)CO	refers to: Hypotension	solid tumour patients	oral, dose not given, phase I monotherapy	–	treatment-related serious adverse events	2.4%
C=C(c1cc(F)c(C(=O)O)c(F)c1)c1cc2c(cc1C)C(C)(C)CCC2(C)C	–	Sprague-Dawley rat, male	oral, 100 mg/kg, 6 h, sesame oil vehicle	–	blood cholesterol	71 ± 12.8 mg/dL
CC[C@H](C)[C@H](NC(=O)[C@H](N)Cc1ccc(O)cc1)C(=O)N[C@H]1CSSC[C@@H](C(=O)N(C)[C@H](C(N)=O)[C@@H](C)CC)NC(=O)[C@H](CCCNC(=N)N)NC(=O)[C@H](Cc2c[nH]cn2)NC(=O)[C@H](C)NC(=O)CN(C)C(=O)[C@H](Cc2c[nH]c3ccccc23)NC(=O)[C@H](CC(=O)O)NC(=O)[C@H](CCC(N)=O)NC(=O)[C@H](Cc2cn(C)c3ccccc23)NC(=O)[C@H](C(C)C)NC1=O	UPLC-ESI-MS	human plasma	0.18 µg/mL, 48 h, 4 °C, autosampler after SPE	–	recovery	99.6 ± 0.3%
Cn1c(=O)oc2ccc(-c3ccc(CC(C#N)NC(=O)C4CNCCCO4)c(F)c3)cc21 (centres unmarked)	–	human	oral, 40 mg once daily, TEAE, multiple ascending dose	–	WBC count decreased incidence	11.1%
OCc1cn(Cc2ccc(-c3noc(-c4ccc(OCC[18F])c(C(F)(F)F)c4)n3)cc2)nn1	–	female Lewis rat, spleen	intravenous, 5 min	–	tissue uptake	2.22 ± 0.23 %ID/g
CCCCCCCCCCCCCCOc1c(O)cc(C(=O)O[C@@H]2Cc3c(O)cc(O)cc3O[C@@H]2c2cc(O)c(O)c(O)c2)cc1O	UV-Vis	PBS	0.02 mg/mL, 24 h, pH 7.4	–	degradation	27.8 ± 1.43%
C#CCOc1ccc(/C=C2\SC(=O)N(CC(=O)NCc3ccccc3)C2=O)cc1	inverse Kirkwood-Buff integrals	binary solvent mixture	298.15 K, mole fraction x1 0.85	–	Kirkwood-Buff integral G2,3	-359 cm³/mol
COc1ccc([C@@H]2CC(=O)c3c(O)cc(O[C@@H]4O[C@H](CO[C@@H]5O[C@@H](C)[C@H](O)[C@@H](O)[C@H]5O)[C@@H](O)[C@H](O)[C@H]4O)cc3O2)cc1O	–	rat plasma	31.25 ng/mL, 12 h, room temperature, autosampler stability	–	measured concentration	30 ± 0.31 ng/mL
CC(C)(O)c1ncc([S@](N)(=O)=NC(=O)Nc2c3c(cc4c2CCC4)CCC3)s1	–	healthy human volunteers, plasma	oral, 25 mg twice daily, day 14, fed, enteric-coated tablet	–	dose-normalised AUC(0-tau)	1080 ng·h/mL/mg
N=C(N)NCCC[C@H](NC(=O)[C@H](CCCNC(=N)N)NC(=O)[C@H](CCCNC(=N)N)NC(=O)[C@H](CCCNC(=N)N)NC(=O)[C@H](CCCNC(=N)N)NC(=O)[C@H](CCCNC(=N)N)NC(=O)[C@H](CCCNC(=N)N)NC(=O)[C@H](CCCNC(=N)N)NC(=O)[C@H](CCCNC(=N)N)NC(=O)[C@H](CCCNC(=N)N)NC(=O)[C@H](CCCNC(=N)N)NC(=O)[C@H](CCCNC(=N)N)NC(=O)[C@H](CCCNC(=N)N)NC(=O)[C@H](CCCNC(=N)N)NC(=O)[C@H](CCCNC(=N)N)NC(=O)[C@H](CCCNC(=N)N)NC(=O)[C@H](CCCNC(=N)N)NC(=O)[C@H](CCCNC(=N)N)NC(=O)[C@H](CCCNC(=N)N)NC(=O)[C@H](CCCNC(=N)N)NC(=O)c1ccc2c(c1)C(=O)OC21c2ccc(O)cc2Oc2cc(O)ccc21)C(=O)O	–	bovine cartilage explants	24 h, added: 10 x PBS	–	retained fraction	~83%
Cc1ccc(-c2ccc(-c3cc4sccc4o3)cn2)nc1	TCSPC	EtOH	–	–	fluorescence lifetime	1.63 ns
COC(=O)C(c1ccccc1Cl)N1CCC(SCC(=O)c2cccc(OC)c2)C(=CC(=O)O)C1 (centres unmarked)	LC-MS/MS	extract in autosampler	50 ng/mL, 24 h, 4 °C	–	measured concentration	50.1 ± 3.9 ng/mL
NCC(=O)N1CCC[C@H]1C(=O)N1C[C@H](O)C[C@H]1C(=O)O	potentiometric titration	water	37 °C, 0.15 mol/dm3 NaCl	–	pKa3	7.25
O=C([O-])CN1CCN(CC(=O)[O-])CCN(CC(=O)NC[C@H]2CC[C@H](C(=O)N[C@H](Cc3cnc4ccccc4c3)C(=O)NCCCC[C@H](NC(=O)N[C@@H](CCC(=O)O)C(=O)O)C(=O)O)CC2)CCN(CC(=O)[O-])CC1.[64Cu+2]	PET/CT dosimetry OLINDA/EXM	healthy volunteers, thyroid	up to 24 h post-injection	–	absorbed dose	0.0143 mGy/MBq
CCCC[C@H](NC(C)=O)C(=O)N[C@H]1CC(=O)NCCCC[C@@H](C(=O)N[C@@H](C(=O)N2CCC[C@@H]2C(N)=O)C(C)C)NC(=O)[C@H](Cc2c[nH]c3ccccc23)NC(=O)[C@H](CCCN=C(N)N)NC(=O)[C@@H](Cc2ccc3ccccc3c2)NC(=O)[C@@H]2CCCN2C1=O	–	healthy dogs, plasma	subcutaneous, 2.25 mg/kg per day, day 5, 2 h post-dose, median	–	plasma histamine	16.3 ng/mL
C=CC(=C)CC[C@]1(C)[C@H](C)CC[C@@]23C(=C[C@H](OC(=O)C(C)C)C[C@@H]12)[C@@H](OC(C)=O)O[C@H]3OC(C)=O	haemolysis	–	500 µM	–	haemolysis	5%
CCOc1c(C(C)(C)O)sc2cnc(Nc3ccc(N4CCC(N5CC6(COC6)C5)CC4)cc3OC)nc12	–	New Zealand rabbit, male, isolated Purkinje fibres	30 µM, 45 min, pacing 0.25 Hz	–	APD90 change	-10 ± 4%
CC1(C)CCC(CN2CCN(c3ccc(C(=O)NS(=O)(=O)c4ccc(NCC5COCCO5)c([N+](=O)[O-])c4)c(N4CCCOc5nc6[nH]ccc6cc54)c3)CC2)=C(c2ccc(Cl)cc2)C1 (centres unmarked)	–	male Beagle dogs, whole blood	oral, 25 mg/kg	–	maximum platelet reduction	17%
CCCC(CCC)NC(=O)c1ccc(O)c(O)c1	LC-MS	Sprague-Dawley rats, pooled sexes, plasma	oral, 200 mg/kg of parent drug, 1 h	relative to: total peak area	metabolite peak area	0.99%
COCCOCCOCCOc1ccc(/C=C/C2=[N+]3C(=C(c4cc(OC)cc(OC)c4)c4c(C)c(I)c(/C=C/c5ccc(OCCOCCOCCOC)cc5)n4[B-]3(F)F)C(C)=C2I)cc1	–	THF	–	–	Stokes shift	440 cm⁻¹
CCOc1ccc2c(c1)C(C)=CC(C)(C)N2c1cc(OCC)cc2c1NC(C)(C)C=C2C	HPLC-fluorescence	Atlantic salmon, flesh	oral, 50 mg/kg feed of ethoxyquin, 90 days	–	residue concentration	182 ng/g
COc1cc(-c2nc3ccccc3s2)cc(CN2CCN(CC(=O)OC(C)C)CCN(CC(=O)OC(C)C)CC2)c1O	UV-Vis pH titration	–	25 °C, ionic strength 0.1 M NaCl	–	pKa3	8.27
CNC(=O)N[C@]1(C)CCC[C@@]2(C)C3CC[C@@]4(C)C[C@]3(CCC21)CC4=O (single isomer, unassigned)	–	rat plasma	1.5 ng/mL, 101 d, -80 °C, long-term storage stability	–	measured concentration	1.46 ± 0.17 ng/mL

A few entries again:
SMILES	test	test system	conditions	how to read	endpoint	value
Cc1ccc(OCC(=O)O)cc1	–	beagle dog, male, plasma	oral gavage, 10 mg/kg of parent drug	–	t1/2	4.77 h
O=C([O-])CN1CCN(CC(=O)[O-])CCN(CC(=O)NCC2CCC(C(=O)NC(Cc3ccc4ccccc4c3)C(=O)NCCCCC(NC(=O)NC(CCC(=O)O)C(=O)O)C(=O)O)CC2)CCN(CC(=O)[O-])CC1.[44Sc+3] (centres unmarked)	PET/CT dosimetry, OLINDA/EXM	human, liver	–	–	residence time	0.779 h
